Published values pooled from the literature.
Protocols differ between the studies behind these lines. Several values in a cell are separate wells, animals, samples, runs or records.
Target: Testis-specific serine/threonine-protein kinase 2 (TSSK2, Homo sapiens, UniProt Q96PF2)

Structure (SMILES)	assay	conditions	how to read	endpoint	value
Cc1cccc(O[C@H]2CCC[C@@H](C(C)CNCc3ccncc3)C2)c1 (relative stereo)	enzyme activity, inhibitor	10 µM	–	inhibition	-16%
COc1ccc(NC(=O)Nc2ccc3c(c2)C(=O)N(C(C)CO)CC(C)C(CN(C)Cc2ccc4c(c2)OCO4)O3)cc1 (stereo not shown)	kinase activity, KinaseProfiler	0.03 µM, species human	baseline: control	remaining activity	102%
COCC12C(=O)NC3C4(C(OC)CC1O)C1CC5(O)C(OC)C(O)C(OC(C)=O)(C1C5OC(=O)c1ccccc1)C3(O)C(OC)C24 (stereo not shown)	kinase activity, inhibitor, ProQinase kinase profiling	25 µM	baseline: control	remaining activity	98% and 92%
CN1CC[C@@H](COc2cnc(C#N)cc2-c2ccn3nc(NC(=O)C4CC4)cc3c2)C1	enzyme activity, inhibitor	1 µM	–	inhibition	0%
CNC(=O)C[C@H](Cc1ccc(C#N)cc1)NC(=O)c1cc(-c2ccc(CN[C@H](C)c3ccc(C)cc3)o2)ccc1Cl	enzyme activity, inhibitor	1 µM	–	activity vs control	103%
Cc1nc2c(F)cc(-c3nc(Nc4ccc(CNC(=O)CCCCCCC(=O)NO)cc4)ncc3F)cc2n1C(C)C	enzyme activity, inhibitor	1 µM	–	inhibition	24%
NC(=O)[C@@H](O)C[C@H]1CCc2sc3ncnc(O[C@H]4CC[C@H](N5CCOCC5)CC4)c3c21	enzyme activity, inhibitor	10 µM	–	inhibition	0%
COc1c(OCCCN2CCOCC2)ccc2c1N=C(NC(=O)c1cnc(N)nc1)N1CCN=C21	kinase activity, inhibitor	1 µM	baseline: untreated control	remaining activity	93%
O=C=[N][Ru-4]123([n]4c5ccc(O)cc5c5c6c(c7cc(F)c[n+]1c7c54)C(=O)NC6=O)[S+]1CC[S+]2CC[S+]3CC1 (stereo not shown)	enzyme activity	100 nM, human enzyme, with: 10 µM ATP	baseline: untreated	remaining activity	100%
CCn1cc(C(=O)O)c(=O)c2c(N)c(F)c(NC3CCCCC3)cc21	kinase activity	0.1 µM, with: ATP at Km	–	inhibition	-10.3%
O=C(Cc1ccc(OCc2ccccc2)cc1)NC1(C(=O)O)CCN(C(=O)c2ccc(-c3cccc(Cl)c3)cc2)CC1	enzyme activity, inhibitor	10 µM	–	activity vs control	110%
NC(=O)C[C@H]1CCc2sc3ncnc(O[C@H]4CC[C@H](N5CCOCC5)CC4)c3c21	enzyme activity, inhibitor	10 µM	–	inhibition	-1%
Nc1ncc(-c2cc(-c3cnn(CC(F)(F)F)c3)ncc2F)nc1C(=O)NC1CNCC(F)C1 (stereo not shown)	enzyme activity	1 µM	baseline: DMSO control	remaining activity	96.7%
C=CC(=O)N1Cc2nc(-c3cc(-c4cc(Cl)cnc4Cl)c(F)cc3F)n(-c3ccncn3)c2C1	cell-free assay, inhibitor	1 µM	–	inhibition	5.1%
CN1CCN(Cc2ccc(-c3ccc(CO[C@H]4CCC[C@@H]4NC(=O)c4cc(-c5cnn(C)c5)cnc4N)cc3)cc2)CC1	enzyme activity, inhibitor	0.1 µM	–	inhibition	3%
C=CC(=O)Nc1cccc(-c2cnc3[nH]cc(C(=O)NC(C)(C)C)c3n2)c1	enzyme activity, inhibitor	0.1 µM	–	inhibition	6%

Repeated from above:
Structure (SMILES)	assay	conditions	how to read	endpoint	value
NC(=O)C[C@H]1CCc2sc3ncnc(O[C@H]4CC[C@H](N5CCOCC5)CC4)c3c21	enzyme activity, inhibitor	10 µM	–	inhibition	-1%
Cc1cccc(O[C@H]2CCC[C@@H](C(C)CNCc3ccncc3)C2)c1 (relative stereo)	enzyme activity, inhibitor	10 µM	–	inhibition	-16%
